# Results collected from several papers.
# A part holds a random share of what one study measured.
# Sequence of UniProt Q9UPE1 (whole entry, looked up): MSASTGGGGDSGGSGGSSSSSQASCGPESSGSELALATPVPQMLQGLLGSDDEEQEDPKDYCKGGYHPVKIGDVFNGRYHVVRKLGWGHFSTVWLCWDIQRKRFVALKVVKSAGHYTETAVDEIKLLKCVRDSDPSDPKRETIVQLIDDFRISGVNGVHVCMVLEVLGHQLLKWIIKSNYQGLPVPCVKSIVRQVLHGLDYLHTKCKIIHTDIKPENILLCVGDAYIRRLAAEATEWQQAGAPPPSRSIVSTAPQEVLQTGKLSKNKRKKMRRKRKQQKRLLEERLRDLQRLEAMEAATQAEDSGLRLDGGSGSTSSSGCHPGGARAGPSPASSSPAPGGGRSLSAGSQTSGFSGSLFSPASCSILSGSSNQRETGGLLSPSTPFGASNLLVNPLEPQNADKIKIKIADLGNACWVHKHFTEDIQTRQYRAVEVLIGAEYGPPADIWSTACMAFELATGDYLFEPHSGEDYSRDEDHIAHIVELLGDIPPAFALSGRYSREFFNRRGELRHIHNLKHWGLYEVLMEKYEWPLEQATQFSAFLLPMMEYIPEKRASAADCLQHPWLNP
# Sequence of UniProt Q15569 (whole entry, looked up): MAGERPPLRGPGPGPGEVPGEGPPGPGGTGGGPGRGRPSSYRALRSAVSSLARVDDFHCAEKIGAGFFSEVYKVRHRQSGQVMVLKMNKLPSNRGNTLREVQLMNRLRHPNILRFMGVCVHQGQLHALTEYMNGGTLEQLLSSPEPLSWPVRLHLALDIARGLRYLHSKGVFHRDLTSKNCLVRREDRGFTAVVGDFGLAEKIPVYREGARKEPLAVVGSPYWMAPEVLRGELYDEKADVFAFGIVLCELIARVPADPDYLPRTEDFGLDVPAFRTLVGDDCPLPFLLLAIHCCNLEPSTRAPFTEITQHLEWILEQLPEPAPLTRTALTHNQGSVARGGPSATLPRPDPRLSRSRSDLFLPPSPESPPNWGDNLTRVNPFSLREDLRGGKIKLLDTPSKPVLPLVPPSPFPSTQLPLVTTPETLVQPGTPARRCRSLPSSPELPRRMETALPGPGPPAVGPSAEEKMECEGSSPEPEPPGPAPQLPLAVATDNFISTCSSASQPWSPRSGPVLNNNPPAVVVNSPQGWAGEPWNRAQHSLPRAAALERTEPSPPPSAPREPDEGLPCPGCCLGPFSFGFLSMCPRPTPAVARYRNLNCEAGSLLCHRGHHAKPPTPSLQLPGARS
# Sequence of UniProt Q8IY84 (whole entry, looked up): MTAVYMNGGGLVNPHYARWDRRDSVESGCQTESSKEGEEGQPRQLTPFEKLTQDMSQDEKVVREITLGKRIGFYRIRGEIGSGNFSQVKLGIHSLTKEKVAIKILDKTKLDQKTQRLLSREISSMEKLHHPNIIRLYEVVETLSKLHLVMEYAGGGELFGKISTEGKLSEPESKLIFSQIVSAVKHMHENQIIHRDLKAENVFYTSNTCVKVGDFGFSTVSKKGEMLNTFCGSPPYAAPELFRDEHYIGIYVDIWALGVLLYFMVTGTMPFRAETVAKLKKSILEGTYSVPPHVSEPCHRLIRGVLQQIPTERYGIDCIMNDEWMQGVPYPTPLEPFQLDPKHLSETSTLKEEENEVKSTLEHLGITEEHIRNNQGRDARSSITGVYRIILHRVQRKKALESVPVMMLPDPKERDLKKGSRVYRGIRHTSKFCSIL
# Sequence of UniProt P32298 (whole entry, looked up): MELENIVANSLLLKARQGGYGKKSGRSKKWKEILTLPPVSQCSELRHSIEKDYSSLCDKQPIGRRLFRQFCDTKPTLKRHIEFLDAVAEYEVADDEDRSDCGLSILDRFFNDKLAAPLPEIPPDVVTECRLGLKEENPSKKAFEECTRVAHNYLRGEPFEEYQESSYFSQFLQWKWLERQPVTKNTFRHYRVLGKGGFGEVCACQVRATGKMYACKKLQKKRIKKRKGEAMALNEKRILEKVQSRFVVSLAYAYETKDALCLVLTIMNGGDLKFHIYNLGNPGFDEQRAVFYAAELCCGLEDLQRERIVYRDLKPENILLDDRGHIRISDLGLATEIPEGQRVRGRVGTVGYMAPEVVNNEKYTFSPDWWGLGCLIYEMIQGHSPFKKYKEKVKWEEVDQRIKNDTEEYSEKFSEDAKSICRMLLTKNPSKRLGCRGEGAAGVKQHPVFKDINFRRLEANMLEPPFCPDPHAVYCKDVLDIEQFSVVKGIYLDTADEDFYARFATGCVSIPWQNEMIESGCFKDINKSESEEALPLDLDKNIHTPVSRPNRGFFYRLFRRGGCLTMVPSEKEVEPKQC
# Sequence of UniProt P42336 (whole entry, unmodified, looked up): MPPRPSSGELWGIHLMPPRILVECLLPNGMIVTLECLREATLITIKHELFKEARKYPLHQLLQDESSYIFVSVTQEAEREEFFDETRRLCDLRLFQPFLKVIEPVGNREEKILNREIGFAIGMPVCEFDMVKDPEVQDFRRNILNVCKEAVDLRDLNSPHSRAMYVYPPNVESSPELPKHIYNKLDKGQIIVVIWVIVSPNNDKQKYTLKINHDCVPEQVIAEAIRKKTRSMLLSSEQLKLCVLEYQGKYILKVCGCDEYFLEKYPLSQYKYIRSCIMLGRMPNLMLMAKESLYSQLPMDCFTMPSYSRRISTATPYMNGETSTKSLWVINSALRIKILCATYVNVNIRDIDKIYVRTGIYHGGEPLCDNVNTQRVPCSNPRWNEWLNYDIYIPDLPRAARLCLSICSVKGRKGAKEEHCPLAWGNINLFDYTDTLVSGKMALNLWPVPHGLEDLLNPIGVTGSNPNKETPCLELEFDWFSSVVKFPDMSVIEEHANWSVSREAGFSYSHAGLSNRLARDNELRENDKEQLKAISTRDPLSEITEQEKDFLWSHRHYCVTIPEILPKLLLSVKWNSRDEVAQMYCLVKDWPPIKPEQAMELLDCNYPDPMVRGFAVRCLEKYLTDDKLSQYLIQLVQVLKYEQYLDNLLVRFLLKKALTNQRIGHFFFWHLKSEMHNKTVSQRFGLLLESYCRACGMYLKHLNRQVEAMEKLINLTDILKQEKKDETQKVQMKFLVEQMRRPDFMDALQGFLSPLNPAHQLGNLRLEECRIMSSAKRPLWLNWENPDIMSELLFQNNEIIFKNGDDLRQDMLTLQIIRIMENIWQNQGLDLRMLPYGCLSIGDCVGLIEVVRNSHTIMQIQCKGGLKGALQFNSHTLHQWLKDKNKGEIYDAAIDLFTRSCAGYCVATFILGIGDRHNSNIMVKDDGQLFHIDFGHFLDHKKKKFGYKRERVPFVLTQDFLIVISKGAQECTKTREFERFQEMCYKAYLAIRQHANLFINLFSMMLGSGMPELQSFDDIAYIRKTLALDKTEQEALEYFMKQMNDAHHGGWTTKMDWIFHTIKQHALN
# Sequence of UniProt Q15831 (whole entry, looked up): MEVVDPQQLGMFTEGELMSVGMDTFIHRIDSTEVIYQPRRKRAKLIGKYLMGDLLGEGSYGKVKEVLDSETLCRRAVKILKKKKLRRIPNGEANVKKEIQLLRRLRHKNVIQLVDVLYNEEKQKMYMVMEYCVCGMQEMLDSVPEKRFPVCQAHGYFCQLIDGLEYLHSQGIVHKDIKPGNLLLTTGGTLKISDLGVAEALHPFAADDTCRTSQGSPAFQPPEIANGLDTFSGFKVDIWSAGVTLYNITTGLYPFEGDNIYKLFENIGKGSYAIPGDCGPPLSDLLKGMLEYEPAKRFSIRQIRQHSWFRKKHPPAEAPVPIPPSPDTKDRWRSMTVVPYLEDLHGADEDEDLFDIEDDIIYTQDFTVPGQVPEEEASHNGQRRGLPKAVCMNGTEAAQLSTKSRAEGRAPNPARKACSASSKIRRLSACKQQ
# Sequence of UniProt P52564 (whole entry, looked up): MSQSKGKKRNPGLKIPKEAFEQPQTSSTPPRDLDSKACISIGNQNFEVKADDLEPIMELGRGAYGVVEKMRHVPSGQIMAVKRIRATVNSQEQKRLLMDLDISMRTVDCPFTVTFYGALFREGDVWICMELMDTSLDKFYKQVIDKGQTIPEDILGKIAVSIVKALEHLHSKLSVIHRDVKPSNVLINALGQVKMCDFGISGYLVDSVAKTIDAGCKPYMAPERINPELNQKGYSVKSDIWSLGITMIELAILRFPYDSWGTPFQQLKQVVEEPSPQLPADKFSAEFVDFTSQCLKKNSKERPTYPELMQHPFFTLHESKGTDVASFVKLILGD
# Sequence of UniProt O43283 (whole entry, looked up): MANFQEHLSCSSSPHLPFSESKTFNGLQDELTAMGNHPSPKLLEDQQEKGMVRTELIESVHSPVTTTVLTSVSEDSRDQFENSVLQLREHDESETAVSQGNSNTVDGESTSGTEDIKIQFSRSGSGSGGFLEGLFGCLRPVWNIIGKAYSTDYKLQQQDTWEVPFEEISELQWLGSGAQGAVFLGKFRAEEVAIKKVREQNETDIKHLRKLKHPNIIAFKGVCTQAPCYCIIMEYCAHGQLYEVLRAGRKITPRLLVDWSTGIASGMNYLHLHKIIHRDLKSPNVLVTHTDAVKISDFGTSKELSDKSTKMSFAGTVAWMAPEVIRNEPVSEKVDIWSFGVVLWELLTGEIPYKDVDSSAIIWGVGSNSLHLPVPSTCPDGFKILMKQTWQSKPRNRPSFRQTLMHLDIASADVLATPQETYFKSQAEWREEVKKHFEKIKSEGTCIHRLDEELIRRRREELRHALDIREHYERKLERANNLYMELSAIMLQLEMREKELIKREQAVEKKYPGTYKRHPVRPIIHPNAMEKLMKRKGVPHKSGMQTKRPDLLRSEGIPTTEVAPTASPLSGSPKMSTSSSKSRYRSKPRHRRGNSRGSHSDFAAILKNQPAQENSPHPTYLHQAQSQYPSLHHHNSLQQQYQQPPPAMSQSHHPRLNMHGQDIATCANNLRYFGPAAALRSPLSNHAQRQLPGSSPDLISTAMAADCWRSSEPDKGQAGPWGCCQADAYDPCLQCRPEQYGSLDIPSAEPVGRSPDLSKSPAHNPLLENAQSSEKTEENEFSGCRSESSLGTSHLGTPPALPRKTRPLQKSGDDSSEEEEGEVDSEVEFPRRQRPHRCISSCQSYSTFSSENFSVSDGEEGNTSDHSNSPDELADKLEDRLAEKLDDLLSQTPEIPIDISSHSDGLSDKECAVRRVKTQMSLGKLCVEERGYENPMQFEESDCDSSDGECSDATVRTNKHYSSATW

# Sample 1
# Structure (SMILES): O=C(N1CCS(=O)(=O)CC1)N1C[C@H](c2ccc(OC(F)(F)F)cc2)C[C@H](c2nc(C3CC3)no2)C1
# Effect on: cell-free assay
# Method: competition with immobilised ligand
# Tested at: 1 µM
target,remaining binding
"NIM1K (Homo sapiens, UniProt Q8IY84)",93%
"FLT3 (Homo sapiens, UniProt P36888, D835V/ITD)",100%
"MAP3K13 (Homo sapiens, UniProt O43283)",98%
"MAP3K7 (Homo sapiens, UniProt O43318)",100%
"Aurora kinase B (AURKB, Homo sapiens, UniProt Q96GD4)",100%
"PIK3CA (Homo sapiens, UniProt P42336, M1043I)",100%
"STK11 (Homo sapiens, UniProt Q15831)",92%
"GRK4 (Homo sapiens, UniProt P32298)",100%
"SRPK3 (Homo sapiens, UniProt Q9UPE1)",100%
"MAP2K6 (Homo sapiens, UniProt P52564)",100%
"Tyrosine-protein kinase ABL1, phosphorylated (ABL1, Homo sapiens, UniProt P00519, Y253F)",100%
"TESK1 (Homo sapiens, UniProt Q15569)",100%

# Sample 2
# Target: Phosphate system positive regulatory protein PHO4, full length, GST-tagged (PHO4, Saccharomyces cerevisiae, UniProt P07270, residues 1-312)
# Method: competition protein-binding microarray
# Form: double-stranded DNA, one strand shown
# Matrix: in vitro
# Tested at: 2 µM
# Setting: whole 60-bp probe, lowest competitor level
# Together with: Cbf1 competitor, 0.05 µM
# Reading: higher = stronger binding
# Constant ends, left off below: … GTCTTGATTCGCTTGACGCTGCTG
# Construct (chain): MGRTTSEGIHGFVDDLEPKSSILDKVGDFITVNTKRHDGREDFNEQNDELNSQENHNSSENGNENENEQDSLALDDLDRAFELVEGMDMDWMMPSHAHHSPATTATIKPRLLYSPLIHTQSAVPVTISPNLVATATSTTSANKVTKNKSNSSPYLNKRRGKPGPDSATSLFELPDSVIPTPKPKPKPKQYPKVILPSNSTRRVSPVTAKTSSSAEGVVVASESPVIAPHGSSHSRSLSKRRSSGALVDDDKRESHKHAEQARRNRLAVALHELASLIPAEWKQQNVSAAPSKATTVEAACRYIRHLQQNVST
Strand,fluorescence intensity [a.u.]
CTTTCCCGATCTTGCCACGTGGGTGTAGCACATTTG,16400
AGACGCTAGACCTGCCATGTGGAGATCCGGGGCGGA,8470
TAAATGGTCTCTTAATGCGTGCCGAATTTTCGTAAT,9160
GCCTTCGACAAAAAGGGCGTGCAAACTCAACAGCGG,7330
TGTTGTAATTTTTGGCATGTGCTATTGTATGAAGAT,13100
TGCGCAACAACTTGGGGCGTGGGTGTATGTCTAGAA,8930
AACAACACCAGCACCTTCGTGACGGCCGATTAATGG,5430
CTCGAATCGAAAACAAACGTGGCCGTTGGTCCATCA,12500

# Sample 3
# Target: SRSF protein kinase 3 (SRPK3, Homo sapiens, UniProt Q9UPE1)
# Effect on: enzyme activity
# Mode: inhibitor
# Tested at: 0.5 µM
# Reference: control
SMILES,remaining activity
CCN(CC)CCNC(=O)c1c(C)[nH]c(/C=C2\C(=O)Nc3ccc(F)cc32)c1C,102%
O=C(Nc1cccc(Nc2nccc(Nc3cccc(C(F)(F)F)c3)n2)c1)C1CC1,101%
CCN(CC)CCNC(=O)c1c(C)[nH]c(/C=C2\C(=O)Nc3ccc(Cl)cc32)c1C,92.8%
O=C1c2ccccc2-c2n[nH]c3cccc1c23,92.5%
O=C1Nc2ccc(Cl)cc2C1=Cc1cc(Cl)c(O)c(Cl)c1,88.3%
Nc1cccc(-c2cc3c(Oc4cccc(O)c4)ncnc3[nH]2)c1,101%
O=c1cc(-c2cccc3c2Sc2ccccc2S3)oc(N2CCOCC2)c1,99.6%
COc1cc2ncnc(Nc3cccc(Cl)c3)c2cc1OC,90.1%
N#Cc1c(NC(=O)c2cccc3ccccc23)sc2c1CCCC2,95.7%
CN(C)C[C@H]1CCn2c(c(C3=C(c4cn(C)c5ccccc45)C(=O)NC3=O)c3ccccc32)C1,100%
c1ccc(-c2cnc(Nc3ccc(OCCN4CCCC4)cc3)s2)cc1,98.2%
N#C/C(=C\c1ccc(O)c(O)c1)C(=O)NCc1ccccc1,93.9%

# Further values, each from its own experiment
# Partner: HMGB2 (Homo sapiens, UniProt P26583)
# Method: cross-linking MS
# Setting: hits only
Substance,interaction screen
"HMGB1 (Homo sapiens, UniProt P09429)",cross-linked
"HMGB3 (Homo sapiens, UniProt O15347)",cross-linked

# Excerpt of the above (sample 2):
Strand,fluorescence intensity [a.u.]
TGCGCAACAACTTGGGGCGTGGGTGTATGTCTAGAA,8930
CTTTCCCGATCTTGCCACGTGGGTGTAGCACATTTG,16400
AGACGCTAGACCTGCCATGTGGAGATCCGGGGCGGA,8470
